Measured values collected from several papers.
Every numbered part comes from another study and shows a few of its results, in no order.

Sample 1
Target: Ras GTPase-activating protein-binding protein 1, full length (G3BP1, Homo sapiens, UniProt Q13283)
Sequence of UniProt Q13283 (whole entry, looked up): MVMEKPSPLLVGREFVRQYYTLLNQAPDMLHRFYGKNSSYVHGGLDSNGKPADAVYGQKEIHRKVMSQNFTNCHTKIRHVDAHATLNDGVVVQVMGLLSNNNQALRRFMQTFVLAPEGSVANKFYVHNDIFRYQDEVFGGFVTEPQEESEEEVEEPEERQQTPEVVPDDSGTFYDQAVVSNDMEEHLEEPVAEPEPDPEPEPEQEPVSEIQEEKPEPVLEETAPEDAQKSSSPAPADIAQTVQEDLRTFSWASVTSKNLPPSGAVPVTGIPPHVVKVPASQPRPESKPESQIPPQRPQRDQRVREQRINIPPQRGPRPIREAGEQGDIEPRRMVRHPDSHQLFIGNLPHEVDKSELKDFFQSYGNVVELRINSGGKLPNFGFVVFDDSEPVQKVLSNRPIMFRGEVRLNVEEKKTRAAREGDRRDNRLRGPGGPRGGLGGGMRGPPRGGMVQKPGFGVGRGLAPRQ
Technique: RNA Bind-n-Seq
Form: RNA
Medium: in vitro
Concentration: 200 nM
Setting: whole 134-nt RNA, ends assumed
Together with: 150 mM LiCl
Baseline: input library
Direction: higher = stronger binding
Quantity: log2 enrichment
All molecules: 7-deaza-guanosine replaces G
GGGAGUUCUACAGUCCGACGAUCAAGUCCUGUGCUACACAUCGUAUGUACCGAAUCGGGAAAAGGAAAAGGAAAAGGGGAAAGUAUUAUGUUACGCCGUUCGGAUCUGCACUUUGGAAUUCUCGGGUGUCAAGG: 0.0456
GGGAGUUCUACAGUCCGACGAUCCCUGUGCUACACAUCGUAUGUACCGAAUCGGGGCCCCCCGGGCCCCCCGGGCCCCCCGGGAAAGUAUUAUGUUACGCCGUUCGGAUCUGCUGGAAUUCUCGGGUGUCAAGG: -1.01
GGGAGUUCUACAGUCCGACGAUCGAAAUACCAUCGGAAGACGAUGGGACGGUGCUGCUCUCCACGGUUACAGCCCAGUUUCCAGGGGCGUGUGGGCUUCGCUACAGGAAUCCAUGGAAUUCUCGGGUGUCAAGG: 0.184
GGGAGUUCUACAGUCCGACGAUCUUUGAAAAAGAAGAAAAAGAAAAAGAAGGGUAAGGCAUUAAAAAAGUCUUUAUAAAUUUUCUCCAAAAUAAAUGUUUGAUUUUAGCCCUAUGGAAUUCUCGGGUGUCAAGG: -2.89
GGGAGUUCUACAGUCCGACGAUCUCCUCAAGUCCUGUGCUACACAUCGUAUGUACCGAAUCGGUGGUUUGGUGGAAAGUAUUAUGUUACGCCGUUCGGAUCUGCACUUCCAGCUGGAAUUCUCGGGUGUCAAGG: 0.42
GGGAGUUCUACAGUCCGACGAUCAAGUCCUGUGCUACACAUCGUAUGUACCGAAUCGGAAAAAGGAAAAAAAGGAAAGGAAAGUAUUAUGUUACGCCGUUCGGAUCUGCACUUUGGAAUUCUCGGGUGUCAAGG: -0.989
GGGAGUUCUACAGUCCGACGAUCUCCUGUGCUACACAUCGUAUGUACCGAAUCGGGCCCCCCGGCCCCCCGGCCCCCCGGGGAAAGUAUUAUGUUACGCCGUUCGGAUCUGCAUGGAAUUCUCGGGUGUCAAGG: 0.198
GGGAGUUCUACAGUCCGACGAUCUCCUGUGCUACACAUCGUAUGUACCGAAUCGGGGUUUUUUUGGGGAAAAAGGGGAGGGGAAAGUAUUAUGUUACGCCGUUCGGAUCUGCAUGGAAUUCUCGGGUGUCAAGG: 0.195
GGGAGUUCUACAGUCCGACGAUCAGUCCUGUGCUACACAUCGUAUGUACCGAAUCGGGAAAAAGGGAAAGGGUUUUUGGGAAAGUAUUAUGUUACGCCGUUCGGAUCUGCACUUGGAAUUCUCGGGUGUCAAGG: -1.82
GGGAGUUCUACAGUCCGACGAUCCUGUGCUACACAUCGUAUGUACCGAAUCGGGGCCCCCCCGGCCCCCCCGGGGCCCCCCCGGAAAGUAUUAUGUUACGCCGUUCGGAUCUGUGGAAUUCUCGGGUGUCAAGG: 1.32
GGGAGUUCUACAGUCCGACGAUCCUGUGCUACACAUCGUAUGUACCGAAUCGGGGAAAAAAAGGAAAAAAAGGAAAAAAAGGGGAAAGUAUUAUGUUACGCCGUUCGGAUCUGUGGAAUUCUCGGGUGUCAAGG: 0.0814

Sample 2
Target: UBE2O UBC core domain (UniProt Q9C0C9)
Technique: yeast two-hybrid
Medium: yeast
Setting: mostly zero background
Baseline: not given
Direction: higher = stronger interaction
Quantity: lacZ reporter activity
B1: TRIML1 RING domain (UniProt Q8N9V2); chain LMENLREELTCFICLDYFSSPVTTECGHSFCLVCLLRSWEEHNTPLSCPECWRTLEGPHFQS
B2: TRIM43 RING domain (UniProt Q96BQ3); chain FSHAFQKELTCVICLNYLVDPVTICCGHSFCRPCLCLSWEEAQSPANCPACREPSPKMDFKT
B3: TRIM5 RING domain (UniProt Q9C035); chain ILVNVKEEVTCPICLELLTQPLSLDCGHSFCQACLTANHKKSMLDKGESSCPVCRISYQPENIRP
B4: NEURL1 RING domain (UniProt O76050); chain VTPGLGQWSDECTICYEHAVDTVIYTCGHMCLCYACGLRLKKALHACCPICRRPIKDIIKT
B5: VPS41 RING domain (UniProt P49754); chain KGVLVDEENICESCLSPILPSDAAKPFSVVVFHCRHMFHKECLPMPSMNSAAQFCNICSAKNRGPGSAI
B6: TRIM5 RING domain (UniProt Q9C035); chain LREVKLSPEGQKVDHCARHGEKLLLFCQEDGKVICWLCERSQEHRGHHTFLTEEVAREYQVKL
B7: SH3RF2 RING domain (UniProt Q8TEC5); chain DDLTLLDLLECPVCFEKLDVTAKVLPCQHTFCKPCLQRVFKAHKELRCPECRTPVFSNIEAL
Residues (chain): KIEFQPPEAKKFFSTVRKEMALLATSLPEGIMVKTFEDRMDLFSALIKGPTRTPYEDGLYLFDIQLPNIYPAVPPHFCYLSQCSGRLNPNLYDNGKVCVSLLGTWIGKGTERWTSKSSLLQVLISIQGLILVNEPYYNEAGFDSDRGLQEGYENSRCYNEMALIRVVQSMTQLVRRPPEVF
VEPSEENSKDCVVCQNGTVNWVLLPCRHTCLCDGCVKYFQQCPMCRQFVQESFALC (CGRRF1 RING domain (UniProt Q99675)): 0
B1 (TRIML1 RING domain): 0
B2 (TRIM43 RING domain): 0
B3 (TRIM5 RING domain): 0
B4 (NEURL1 RING domain): 0
B5 (VPS41 RING domain): 0
DHGAVGQEMCCPICCSEYVKGEVATELPCHHYFHKPCVSIWLQKSGTCPVCRCMFPPPL (PJA1 RING domain (UniProt Q8NG27)): 0
GAAPGPEAAECLVCSELALLVLFSPCQHRTVCEECARRMKKCIRCQVVVSKKLRPD (MIB2 RING domain (UniProt Q96AX9)): 0
B6 (TRIM5 RING domain): 0
B7 (SH3RF2 RING domain): 0

Sample 3
Target: RING finger protein unkempt homolog, zinc fingers 1-6, GST-SBP tag (UNK, Homo sapiens, UniProt Q9C0B0, residues 30-357)
Technique: RNA Bind-n-Seq
Form: RNA
Medium: in vitro
Concentration: not given
Setting: RNA with constant flanks, ends assumed
Baseline: input RNA pool
Direction: higher = stronger binding
Quantity: bound/input enrichment
Residues (chain): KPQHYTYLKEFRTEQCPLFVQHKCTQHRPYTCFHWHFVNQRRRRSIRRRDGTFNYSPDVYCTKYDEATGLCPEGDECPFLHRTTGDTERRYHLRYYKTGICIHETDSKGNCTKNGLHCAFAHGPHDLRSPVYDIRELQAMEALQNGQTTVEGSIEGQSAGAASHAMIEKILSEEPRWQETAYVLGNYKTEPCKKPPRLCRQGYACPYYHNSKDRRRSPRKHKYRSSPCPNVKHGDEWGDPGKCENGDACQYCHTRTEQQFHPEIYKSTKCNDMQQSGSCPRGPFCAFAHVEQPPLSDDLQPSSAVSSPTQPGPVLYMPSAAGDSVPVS
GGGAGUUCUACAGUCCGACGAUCUUUUAUUGAUCAGGUCUGUAAAUGUGUACUAAAAAAAUCAGAGUUUAUUUAUAAACAAAACCGUUUAUUUAAAGAGAAGGUCUCUUCCUUAUUGAUAUCAUGGUAUGCAUUAAUUCCAUUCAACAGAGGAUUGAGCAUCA: 0.335 ratio
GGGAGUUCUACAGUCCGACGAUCUGCUGCUACAUGAACUUCACAGGGGCCCAAAGCCAUUGUCUGCAUGUGUCUGCCCAGAAGAUGCCCGACAAUGCUGCUUUCACCCUGUAUGAGUUCUGGCAGGAUGAAGCCUCCUGGAGACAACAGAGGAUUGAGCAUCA: 0.0705 ratio
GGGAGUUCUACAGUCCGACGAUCCAGGUGGGCCAAUCCAAAAUAACAGUUCUUGGCAGUCCUUCCAUGGGUAUCUAUCUUUGCCGGUAUGCAGAUCUCUUACAGGCUAAUCCUUUGGAGGCUGGGGCAGUAGGCGAUGUUGUUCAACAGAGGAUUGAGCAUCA: 0.644 ratio
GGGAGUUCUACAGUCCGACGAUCAGAGCUGCCCGUGGUGGGUGUCAGCAGUGUGUCAUGGUCGCCACACAGCAGGGGGUGUGACCGGUCAGCCACGUGAUCCUCAUCUGCACAGAAGCAGAGAGGGCCCCAGGCCCCUGGCCUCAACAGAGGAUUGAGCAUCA: 0.201 ratio
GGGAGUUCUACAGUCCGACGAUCCUUGGUGGCGAAUGUGUUGCGGGUCCUGUUGGGCUGCUUUCUGUAUUGUCUCCUAACCCUCCCGUUUUAAUUGGACACUUCUUUGCUGUUGCAAUCUAUGCCGUGUAUUUUUGCUUUAAGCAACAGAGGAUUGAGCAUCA: 0.527 ratio
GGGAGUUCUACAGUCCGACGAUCAACCGGAAGGGCCUGAUAGCCGCCAUCUGUGCAGGUCCUACUGCUCUGUUGGCUCAUGAAACCGGUUUUGGAAGUAAAGUUACAACACACCCUCUUGCUAAAGACAAAAUGAUGAAUGGACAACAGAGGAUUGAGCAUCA: 0.314 ratio

Sample 4
Target: Interferon regulatory factor 3, full length, phosphomimetic (IRF3, Homo sapiens, UniProt Q14653, residues 1-427, S386D/S396D/S398D/S402D/T404D/S405D)
Technique: protein-binding microarray
Form: double-stranded DNA, one strand shown
Medium: in vitro
Concentration: 2540 nM top
Setting: 60-bp whole probe
Together with: salmon DNA 0.4 mg/ml
Baseline: random background probes
Direction: higher = stronger binding
Quantity: fitted relative affinity
Shared flanks, not repeated: GCCTAGCAC … GTCTTGATTCGCTTGACGCTGCTG
Construct (chain): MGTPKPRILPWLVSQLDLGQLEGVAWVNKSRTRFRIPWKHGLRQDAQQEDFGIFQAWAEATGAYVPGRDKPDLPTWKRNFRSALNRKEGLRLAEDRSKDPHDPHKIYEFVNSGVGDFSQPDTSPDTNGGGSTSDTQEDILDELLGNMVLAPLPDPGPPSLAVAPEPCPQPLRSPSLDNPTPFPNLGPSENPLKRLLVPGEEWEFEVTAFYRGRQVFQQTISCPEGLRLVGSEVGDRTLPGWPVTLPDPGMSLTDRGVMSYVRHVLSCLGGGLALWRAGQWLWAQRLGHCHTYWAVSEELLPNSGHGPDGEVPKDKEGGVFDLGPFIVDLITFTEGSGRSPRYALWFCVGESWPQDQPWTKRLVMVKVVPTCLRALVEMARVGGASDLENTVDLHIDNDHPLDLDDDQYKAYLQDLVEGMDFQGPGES
TCATTTCTCAACCATTTTACTGTGCTA: 2.76 z-score
GACGATTCCAGTTTCGCGACGTGCTAG: 2.24 z-score
TTAGATTTCAGTTCCGAATAGTGCTAG: 3.87 z-score
TCACTTCTGGTGCTCATACTGTGCTAG: 0.944 z-score
GACGTTTTCGGGTATCGAGACGTGCTA: 2.18 z-score
CCTTGCATGTTTTTGACAAAGTGCTAG: 0.44 z-score
GACGGTATCGGTCTCGGGTCGTGCTAG: 4.72 z-score
TTAGGACTGGATATCGGTTAGTGCTAG: -0.202 z-score
CAGCTTCTAATATTCATTTTGTGCTAG: 1 z-score
TTAGGCTTCGGTCTCGGTTAGTGCTAG: 0.514 z-score
TTAGGTATCGGTATCGGTTTGTGCTAG: 6.55 z-score
GAAGATTTCAGTATCGAGACGTGCTAG: 1.97 z-score
TTAGGTTTCGGGTATCGCTTAGTGCTA: 4.15 z-score
GACGGTCTCGGGATCGGGACGTGCTAG: 0.199 z-score
TTAGATACCAGTATCGATTAGTGCTAG: 1.43 z-score
GTATTTTTCTAAACCATTTTGTGCTAG: 1.65 z-score
TTAGGACTGGGATTGGGTTAGTGCTAG: -0.79 z-score

Sample 5
Target: Sal-like protein 4, full length isoform B (SALL4, Homo sapiens, UniProt Q9UJQ4-2, residues 1-616)
Technique: universal PBM
Form: double-stranded DNA, one strand shown
Medium: in vitro
Concentration: not given
Setting: 8-mer, flanks averaged, mean of replicates
Direction: higher = stronger binding
Quantity: E-score
ACGTACGG: -0.165
CCGCTTAG: -0.331
GAAAAAAA: 0.316
GTGCGATA: 0.0157
CGGGGTAG: -0.267
CTTCATAC: 0.235
GATGGGGA: -0.202
CCTTTGAG: -0.154
GATCTAAC: 0.0258
GCCCTTCC: -0.252
ATTTTGCG: 0.205
ACTTTCCG: 0.0491
CCTAGATC: -0.0614
AACGAAGC: -0.19
ACGTCATA: 0.303
CCTAGACC: -0.071
GCTCGCGA: -0.0693
ATTTTAGG: 0.21
CGACGTTC: -0.238

Some of these lines once more (sample 5):
GTGCGATA: 0.0157
CGGGGTAG: -0.267
CTTCATAC: 0.235
GATGGGGA: -0.202
CCTTTGAG: -0.154
